Results gathered from unrelated publications.
Protocols differ between the studies behind these lines. Numbers after ± are the reported error.
HDAC5: Histone deacetylase 5 (HDAC5, Homo sapiens, UniProt Q9UQL6)
CTSL: Procathepsin L (CTSL, Homo sapiens, UniProt P07711)
MMP2: 72 kDa type IV collagenase (MMP2, Homo sapiens, UniProt P08253)
PDGFRB: Platelet-derived growth factor receptor beta (PDGFRB, Homo sapiens, UniProt P09619)
KDR: Vascular endothelial growth factor receptor 2 (KDR, Homo sapiens, UniProt P35968)
ERN2 RNase domain: Serine/threonine-protein kinase/endoribonuclease IRE2, RNase domain (ERN2, Homo sapiens, UniProt Q76MJ5)

Structure (SMILES)	tested on	assay	test system	setting	endpoint	value
Cn1c(=O)n(CCCO)c(=O)c2c1nc(Oc1cccc(C3(C(F)(F)F)N=N3)c1)n2Cc1ccc(Cl)cc1	TRPC4 (Homo sapiens, UniProt Q9UBN4)	calcium signal, inhibitor, fluorescence	–	–	IC50	0.04 µM
COCCn1cc2c(n1)CN(C(=O)Nc1nc(-c3ccc(F)cc3F)ccc1N)C2	HDAC5	deacetylase activity, inhibitor, recombinant enzyme	–	–	IC50	> 30 µM
CC[C@H](C)[C@H](NC(=O)[C@H](CCCNC(=N)N)NC(=O)[C@H](CCCNC(=N)N)NC(=O)[C@H](CC(C)C)NC(=O)[C@H](C)NC(=O)[C@@H]1CCC(=O)N[C@@H](CNC(=O)CCl)C(=O)N[C@@H]([C@@H](C)CC)C(=O)N[C@@H](C)C(=O)N1)C(=O)NCC(=O)N[C@@H](CC(=O)O)C(=O)N[C@@H](C)C(=O)N[C@@H](Cc1ccccc1)C(=O)N[C@@H](CC(N)=O)C(=O)N[C@@H](C)C(=O)N[C@@H](C)C(=O)N[C@@H](Cc1ccc(O)cc1)C(N)=O	Bcl-2-related protein A1, part: transmembrane-deleted (Homo sapiens, UniProt Q16548)	BID BH3 peptide binding, inhibitor, DELFIA displacement	–	2 h, 1% DMSO	IC50	0.0029 ± 0.0001 µM
CCCCN(Cc1ccc(F)cc1)c1nc(C#N)nc(N2CCOCC2)n1	CTSL	enzyme activity, inhibitor, fluorescence	–	–	IC50	0.026 µM
CC(C)C[C@@H]1NC(=O)[C@H]([C@@H](C)O)NC(=O)[C@H](Cc2ccccc2)NC(=O)CNC(=O)[C@H](Cc2c[nH]c3ccccc23)NC(=O)[C@H](Cc2c[nH]cn2)NC(=O)[C@H](C)NC(=O)[C@H]([C@@H](C)O)NC(=O)[C@H](CCCCN)NC(=O)C[C@@H](C(N)=O)NC1=O	MMP2	inhibitor	–	1 h preincubation, 37 °C, together with: APMA-activated enzyme	IC50	7.97 µM
Cc1ccccc1CN(CCC(C)C)c1nc(C#N)nc(N2CCOCC2)n1	CTSL	enzyme activity, inhibitor, fluorescence	–	–	IC50	0.014 µM
COc1ccc(/N=N/c2ccc(O)c(C3c4c([nH]c(=S)[nH]c4=O)Nc4[nH]c(=S)[nH]c(=O)c43)c2)cc1	PTGS2 (Ovis aries, UniProt P79208)	enzyme activity, inhibitor, ELISA	–	–	IC50	2.51 µM
O=C(NCCNc1ccc([N+](=O)[O-])cc1C(F)(F)F)c1ccccc1	Potassium channel subfamily K member 6 (KCNK6, Homo sapiens, UniProt Q9Y257)	ion current, inhibitor, automated patch clamp	HEK293 GnTI-	–	IC50	5.7 µM
CC(C)[C@H](NC(=O)[C@H](C)NC(=O)[C@H](Cc1c[nH]c2ccccc12)NC(=O)[C@H](Cc1c[nH]cn1)NC(=O)[C@H](N)Cc1ccc(O)cc1)C(=O)N[C@H](C)C(=O)N[C@@H](Cc1c[nH]cn1)C(=O)N1CCC[C@@H]1CN[C@@H](Cc1ccccc1)C(N)=O	NMBR (Homo sapiens, UniProt P28336)	inositol phosphate generation, antagonist	Balb 3T3 expressing NMBR	together with: neuromedin B 1 nM	IC50	> 10 µM
O=c1[nH]sc2ccccc12	HDAC5	enzyme activity, inhibitor	–	–	IC50	> 10 µM
COc1cc2nccc(Oc3ccc(NC(=S)Nc4ccc(Cl)cc4F)c(Cl)c3)c2cc1C(N)=O	PDGFRB	–	–	–	IC50	2.04 µM
C#Cc1cccc(Nc2ncnc3cc(OC)c(OCCCN4CCOCC4)cc23)c1	PDGFRB	enzyme activity, inhibitor	–	30 min, together with: ATP 80.8 µM	IC50	1.18 ± 0.113 µM
COc1cc2nccc(Oc3ccc(NC(=S)NC4CC4)c(Cl)c3)c2cc1C#N	KDR	–	–	–	IC50	0.172 µM
Oc1c(C(Nc2nccs2)c2cccc(OCc3ccccc3)c2)ccc2cccnc12 (stereo not shown)	Genome polyprotein, protease (Dengue virus type 2, UniProt P14340)	enzyme activity, inhibitor, fluorescence	–	–	IC50	2.99 µM
COc1cc2ncnc(Oc3ccc(Nc4nccc5[nH]cc(-c6ccccc6)c(=O)c45)cc3F)c2cc1OC	MET (Homo sapiens, UniProt P08581)	kinase activity, inhibitor, HTRF	–	–	IC50	0.0697 µM
COc1cc2nccc(Oc3ccc4sc(Nc5ccc(Cl)c(F)c5)nc4c3)c2cc1C(N)=O	KDR	–	–	–	IC50	4.8 µM
C=C(CC(O)C(=O)O)C(=O)O (racemic)	TET1 (Homo sapiens, UniProt Q8NFU7)	enzyme activity, 5hmC ELISA	–	recombinant protein	IC50	1.5 µM
O=C1C2=C(Nc3ccccc3SC2c2ccsc2)c2ccccc21 (racemic)	Type II NADH dehydrogenase (Plasmodium falciparum, UniProt Q8I302)	enzyme activity, inhibitor, fluorescence NAD+ quantitation	recombinant enzyme	–	IC50	> 20 µM
CN(Cc1cc(C2CC2)on1)C(=O)c1cccc(-c2ccc3c(c2)CCO3)c1	Acetyl-CoA synthetase (Cryptococcus neoformans, UniProt J9VFT1)	–	–	–	IC50	8.8 µM
CCc1nc2ccc(N(Cc3ccccc3)C(=O)c3cccs3)cc2c(=O)n1Cc1ccc(-c2ccccc2-c2nn[nH]n2)cc1	AGTR2 (Homo sapiens, UniProt P50052, W269F)	ligand displacement, radioligand	–	cell membranes	Ki	0.00316 µM
CC(C)(C)NCCCNC(=O)c1ccnc(C(F)(F)F)c1	Chromobox protein homolog 7 (Homo sapiens, UniProt O95931)	methyl-lysine reader binding, inhibitor, AlphaScreen	–	–	IC50	> 100 µM
O=C1NC(=O)C(C2CCOc3cc(Oc4ccc(C(F)(F)F)cc4Cl)ccc32)S1 (stereo not shown)	FFAR1 (Homo sapiens, UniProt O14842)	binding, SPA	CHO-K1 membranes	together with: [3H]AM-1638	IC50	0.02 µM
CC(=S)NCCCC[C@H](NC(=O)[C@H](CCCNC(=N)N)NC(=O)[C@H](C)N)C(=O)N[C@@H](CO)C(=O)N[C@H](C(=O)O)[C@@H](C)O	SIRT6 (Homo sapiens, UniProt Q8N6T7)	–	–	–	IC50	> 100 µM

Structure (SMILES)	tested on	assay	test system	setting	endpoint	value
O=C(NCCOc1cnc(-c2ccc(N3CCN(C(=O)CN4CCC(C(=O)Nc5ccc6[nH]nc(-c7ccncc7)c6c5)C4)CC3)cc2)nc1)OC1CCC=CCCC1 (stereo not shown)	MAPK1 (Homo sapiens, UniProt P28482)	ATF2-GFP phosphorylation, inhibitor, TR-FRET	–	–	IC50	0.0053 µM
OC[C@H]1O[C@@H](Sc2ccccc2)[C@H](O)[C@@H](O)[C@@H]1O	SLC5A1 (Homo sapiens, UniProt P13866)	transporter uptake, inhibitor, radiometric	–	–	IC50	30 µM
COC(=O)N1c2ccc3cn(CCc4ccccc4)nc3c2CC[C@@H]1C	CREB-binding protein, bromodomain (CREBBP, Homo sapiens, UniProt Q92793)	binding, inhibitor	–	–	IC50	~2 µM
CC(C)=CCN=C(N)NCCC[C@@H](NC(=O)CCCc1ccc(O)cc1)C(=O)N[C@@H](Cc1ccccc1)C(O)CC(=O)N[C@@H](Cc1ccc(O)cc1)C(=O)O (stereo in doubt)	MMP2	enzyme activity, inhibitor	–	–	IC50	37 µM
COc1cc(COc2ccc3c(C)cc(=O)oc3c2)cc(OC)c1OC	Nucleoside transporter 1 (Plasmodium vivax, UniProt A5K8B0)	[3H]adenosine uptake	target-expressing yeast	–	IC50	0.0026 ± 0.0009 µM
CCCc1nc2ccc(N(Cc3ccco3)C(=O)c3ccccc3)cc2c(=O)n1Cc1ccc(-c2ccccc2-c2nnn[nH]2)cc1	AGTR2 (Homo sapiens, UniProt P50052, I304A)	ligand displacement, radioligand	–	cell membranes	Ki	0.0389 µM
Clc1ccccc1C(c1ccccc1)(c1ccccc1)n1cnc2ccccc21	KCNN4 (Homo sapiens, UniProt O15554)	ion current, inhibitor, patch clamp	–	–	IC50	> 20 µM
CCOc1cccc(Nc2nc(N)c(C(=O)c3ccc(OC)cc3)s2)c1	GSK3 (Trypanosoma brucei, UniProt Q388M1)	enzyme activity, inhibitor, radiometric	–	–	IC50	0.04 µM
Cc1nc(-c2ccc(NC(=O)c3cccs3)cc2Cl)no1	EGFR (Homo sapiens, UniProt P00533)	enzyme activity, Kinase-Glo luminescence	–	–	IC50	4.78 ± 1.23 µM
Cn1c(=O)c2c(nc(OC3CCN(C(=O)C4CC4)CC3)n2Cc2cccc(F)c2)n(C)c1=O	ALDH1A1 (Homo sapiens, UniProt P00352)	–	–	–	IC50	0.285 ± 0.101 µM
C=CC(=O)N1CCc2ccc(-n3c(=O)ccc4cnc5ccc(-c6cnn(C)c6)cc5c43)cc21	p38 MAP kinase	enzyme activity, inhibitor	–	–	IC50	> 10 µM
C=CCCN(Cc1ccc(F)cc1)c1nc(C#N)nc(N2CCOCC2)n1	CTSL	enzyme activity, inhibitor, fluorescence	–	–	IC50	0.064 µM
COc1cc(CCC(C)=O)ccc1O	mAb 5-D8	antibody binding, indirect competitive ELISA	–	together with: coating antigen hapten 5-OVA	IC50	> 4 µg/mL
NS(=O)(=O)Nc1ncnc(OCCOc2ncc(Br)cn2)c1-c1ccc(Br)cc1	–	Eadie-Hofstee plot, measured: compound formation	female Sprague-Dawley rat, liver microsomes	1500 mg/kg daily, 4 weeks	Vmax	458 ± 25 pmol/min/mg
COc1cc2nccc(Oc3ccc(NC(=S)N4CC(F)(F)C4)c(Cl)c3)c2cc1C(N)=O	PDGFRB	–	–	–	IC50	0.184 µM
NC1CCC(Nc2nccc(-c3cccnc3Oc3cccc4c(NS(=O)(=O)C5CCC5)cccc34)n2)CC1 (stereo not shown)	ERN2 RNase domain	RNase activity, inhibitor	–	together with: XBP1 mini-substrate	IC50	14 ± 4 µM
Cc1c(C(=O)NNC(=S)Nc2ccc(Cl)cc2)nnn1Cc1nc2ccccc2[nH]1	DNA topoisomerase II	inhibitor	–	–	IC50	2.52 ± 0.15 µM
CCOC(=O)N1CCC(Oc2nc3c(c(=O)n(C)c(=O)n3C)n2CCC(C)C)CC1	HSD17B4 (Homo sapiens, UniProt P51659)	–	–	–	IC50	> 57 µM
CCc1ccc(NC(=O)CNS(=O)(=O)c2nc(-c3ccc(OC(F)(F)F)cc3)cc(C(F)(F)F)n2)cc1	WRN (Homo sapiens, UniProt Q14191)	inhibitor	–	–	IC50	~0.01 µM
O=C(O)CCCC(=O)NNC(=O)c1cc2c(cn1)[nH]c1ccccc12	Egl nine homolog 1 (EGLN1, Homo sapiens, UniProt Q9GZT9)	inhibitor, AlphaScreen	–	bimodal curve, rough estimate, together with: 2 µM 2-oxoglutarate	IC50	0.13 µM
C[C@@H](c1ccn(Cc2ccc(I)cc2)n1)[C@](O)(Cn1cnnn1)c1ccc(F)cc1F	Cytochrome P450 2D6 (CYP2D6, Homo sapiens, UniProt P10635)	enzyme activity, inhibitor	human, liver microsomes	–	IC50	0.619 µM
NC1CCC(Nc2nccc(-c3cccnc3Oc3ccc(NS(=O)(=O)C4CCC4)c4ccccc34)n2)CC1 (stereo not shown)	ERN2 RNase domain	RNase activity, inhibitor	–	together with: XBP1 mini-substrate	IC50	> 20 µM
COc1cc2nccc(Oc3ccc(NC(=S)NC4CC4)c(Cl)c3)c2cc1C(=O)NO	PDGFRB	–	–	–	IC50	0.0676 µM

For quick reference, copied from above:
Structure (SMILES)	tested on	assay	test system	setting	endpoint	value
COc1cc2nccc(Oc3ccc(NC(=S)Nc4ccc(Cl)cc4F)c(Cl)c3)c2cc1C(N)=O	PDGFRB	–	–	–	IC50	2.04 µM
C#Cc1cccc(Nc2ncnc3cc(OC)c(OCCCN4CCOCC4)cc23)c1	PDGFRB	enzyme activity, inhibitor	–	30 min, together with: ATP 80.8 µM	IC50	1.18 ± 0.113 µM
COc1cc2nccc(Oc3ccc(NC(=S)NC4CC4)c(Cl)c3)c2cc1C#N	KDR	–	–	–	IC50	0.172 µM
Oc1c(C(Nc2nccs2)c2cccc(OCc3ccccc3)c2)ccc2cccnc12 (stereo not shown)	Genome polyprotein, protease (Dengue virus type 2, UniProt P14340)	enzyme activity, inhibitor, fluorescence	–	–	IC50	2.99 µM
